Results of several laboratories.
Protocols differ between the studies behind these lines.
BRAF: Serine/threonine-protein kinase B-raf (BRAF, Homo sapiens, UniProt P15056)
BRAF V600E: Serine/threonine-protein kinase B-raf (BRAF, Homo sapiens, UniProt P15056, V600E)

| SMILES | target | effect on | method | tested at | relative to | remaining binding [%] |
| --- | --- | --- | --- | --- | --- | --- |
| CC(=O)N1c2ccc(-c3ccc(CNC(=O)c4cn5cc(-c6cnc(N)nc6)nc(N6CCOCC6)c5n4)cc3)cc2CC[C@@H]1C | BRAF | – | KINOMEscan | 10 µM | – | 33 |
| C=CC(=O)N1CCCC(n2c(=O)c3ncccc3n(Cc3ccc(Oc4ccccc4)cc3)c2=O)C1 (stereo not shown) | BRAF V600E | cell-free assay | competition with immobilised ligand | 1 µM | – | 89 |
| Nc1ncc2c(n1)-c1c([nH]c3ccc(C4=CCOCC4)cc13)CCC2 | BRAF | binding | competition with immobilised ligand | 1 µM | – | 100 |
| CC(C)=CC1OC(C)(C)C2C=C3C(=O)C(Cl)=CC(O)C3C3C(O)C4OC4C(=O)C132 (stereo not shown) | BRAF | cell-free assay | competition with immobilised ligand | 10 µM | – | 100 |
| Cc1cnc2nc1Nc1cccc(c1)COC/C=C/COCc1cc(ccc1OCCN1CCOCC1)N2 | BRAF | binding | – | 0.1 µM | – | 96 |
| CNS(=O)(=O)Nc1nccc(Cc2c(C)c3ccc(Oc4ncccc4F)cc3oc2=O)c1F | BRAF V600E | cell-free assay | competition with immobilised ligand | 10 µM | – | 85 |
| CNC1C[S+]2CC[S+]3CC[S+](C1)[Ru-4]321([N]=C=S)[n]2c3ccc(OC)cc3c3c4c(c5cc(F)c[n+]1c5c32)C(=O)NC4=O (stereo not shown) | BRAF | – | KinomeScan | 0.1 µM | untreated | 100 |
| Cc1ccc(-c2c(/C=C(\C#N)C(=O)NC(C)C)n(CCCO)c3ncnc(N)c23)cc1 | BRAF | cell-free assay | competition with immobilised ligand | 1 µM | – | 56 |
| CCN1CCN(Cc2ccc(NC(=O)c3ccc(C)c(NC(=O)c4cncc(-c5cccs5)c4)c3)cc2C(F)(F)F)CC1 | BRAF V600E | binding | competition with immobilised ligand | 1 µM | – | 15 |
| COc1c(Cl)cccc1Nc1c(-c2ccncc2C#C[C@@]2(C)CCCN2C(=O)/C=C/CN(C)C)[nH]c2c1C(=O)NCC2 | BRAF V600E | cell-free assay | competition with immobilised ligand | 3 µM | – | 5.7 |
| COc1cc(Nc2nccc(-c3cnn4nc(OC)ccc34)n2)cc(C(F)(F)F)c1 | BRAF V600E | binding | – | 1 µM | – | 100 |
| COc1ccc(NC(=O)Nc2ccc3c(c2)C(=O)N(C(C)CO)CC(C)C(CN(C)Cc2ccc4c(c2)OCO4)O3)cc1 (stereo not shown) | BRAF V600E | binding | competition with immobilised ligand | 10 µM | – | 65 |
| CNC(=O)C1CCN(c2cc(C)c(F)cc2NC(=O)c2ccc(-c3cc(O)ccc3C)c(C)c2)CC1 | BRAF V600E | binding | competition with immobilised ligand | 1 µM | – | 100 |
| CN1CCN(Cc2ccc(NC(=O)c3cccc(C#Cc4cnc(N)c5ncccc45)c3)cc2C(F)(F)F)CC1 | BRAF | cell-free assay | competition with immobilised ligand | 0.5 µM | – | 0.5 |
| C=CC(=O)N1CCc2ccc(-n3c(=O)ccc4cnc5ccc(-c6cnn(C)c6)cc5c43)cc21 | BRAF V600E | – | KINOMEscan | 1 µM | DMSO control | 100 |
| CCN1CCN(Cc2ccc(C(=O)Nc3ccc(C)c(NCc4cnc5[nH]ccc5c4OC)c3)cc2C(F)(F)F)CC1 | BRAF | binding | competition with immobilised ligand | 1 µM | – | 11 |

For quick reference, copied from above:
| SMILES | target | effect on | method | tested at | relative to | remaining binding [%] |
| --- | --- | --- | --- | --- | --- | --- |
| Cc1cnc2nc1Nc1cccc(c1)COC/C=C/COCc1cc(ccc1OCCN1CCOCC1)N2 | BRAF | binding | – | 0.1 µM | – | 96 |
| CC(=O)N1c2ccc(-c3ccc(CNC(=O)c4cn5cc(-c6cnc(N)nc6)nc(N6CCOCC6)c5n4)cc3)cc2CC[C@@H]1C | BRAF | – | KINOMEscan | 10 µM | – | 33 |
